Measured values collected from several papers.
Lines come from different studies, so protocols differ. ± gives the spread as reported.

CC[C@@H](C)[C@@H](NC(=O)[C@@H](CC(C)C)NC(=O)[C@@H](CCCCN)NC(=O)[C@@H](CC(C)C)NC(=O)[C@@H](CC(C)C)NC(=O)[C@H](NC(=O)[C@@H](Cc1c[nH]cn1)NC(=O)[C@@H](CC(C)C)NC(=O)[C@@H](CCCCN)NC(=O)[C@H](NC(=O)[C@@H](CCCCN)NC(=O)[C@@H](CCCCN)NC(=O)[C@@H](CC(C)C)NC(=O)[C@@H](CO)NC(=O)[C@@H](CCCCN)NC(=O)[C@@H](Cc1ccccc1)NC(=O)[C@H](NC(=O)[C@@H](CCCCN)NC(=O)[C@@H](CC(C)C)NC(=O)[C@@H](Cc1ccccc1)NC(=O)[C@@H](CO)NC(=O)[C@@H](CCCCN)NC(=O)[C@@H](Cc1c[nH]c2ccccc12)NC(=O)[C@@H](CCCCN)NC(C)=O)[C@H](C)O)[C@H](C)O)[C@H](C)O)C(=O)N[C@H](CO)C(=O)N[C@H](CO)C(N)=O — mean residue ellipticity (circular dichroism; aqueous phosphate buffer; pH 7.0, 5 °C, at 222 nm): 3700 deg cm²/dmol
NC12CNCCNCC(NCc3ccc(CNC(=O)CCCC(=O)NCc4ccc(-c5nncnn5)cc4)cc3)(CNCCNC1)CNCCNC2.[64Cu+2] — mean absorbed dose (OLINDA dosimetry; osteogenic cells; pretargeting, 48-h interval): 0.0805 rad/mCi
CC(=O)N[C@H](CCCCN)C(=O)N[C@H](CC(C)C)C(=O)N[C@H](CCCCN)C(=O)N[C@H](CO)C(=O)N[C@H](CC(C)C)C(=O)N[C@H](CC(C)C)C(=O)N[C@H](CCCCN)C(=O)N[C@@H](C(=O)N[C@H](CC(C)C)C(=O)N[C@H](CO)C(=O)N[C@H](CCCCN)C(=O)N[C@H](C)C(=O)N[C@H](CCCCN)C(=O)N[C@H](CCCCN)C(=O)N[C@H](CCCCN)C(=O)N[C@H](CC(C)C)C(=O)N[C@H](CC(C)C)C(=O)N[C@H](CCCCN)C(=O)N[C@@H](C(=O)N[C@H](C)C(=O)N[C@H](CC(C)C)C(=O)N[C@H](CCCCN)C(=O)N[C@H](C)C(=O)N[C@H](CC(C)C)C(=O)N[C@H](CO)C(=O)N[C@H](CCCCN)C(N)=O)[C@H](C)O)[C@H](C)O — mean residue molar ellipticity (circular dichroism; benign aqueous buffer; pH 7.0, 5 °C, at 222 nm; negative is more helical): 4350 deg cm2/dmol
CCCCCCCC(=O)OC[C@H](NC(=O)[C@H](CO)NC(=O)CN)C(=O)N[C@@H](Cc1ccccc1)C(=O)N[C@@H](CC(C)C)C(=O)N[C@@H](CO)C(=O)N1CCC[C@H]1C(=O)N[C@@H](CCC(=O)O)C(=O)N[C@@H](Cc1cnc[nH]1)C(=O)N[C@@H](CCC(N)=O)C(=O)N[C@@H](CCCNC(=N)N)C(=O)N[C@H](C(=O)N[C@@H](CCC(N)=O)C(=O)N[C@@H](CCC(N)=O)C(=O)N[C@@H](CCCNC(=N)N)C(=O)N[C@@H](CCCCN)C(=O)N[C@@H](CCC(=O)O)C(=O)N[C@@H](CO)C(=O)N[C@@H](CCCCN)C(=O)N[C@@H](CCCCN)C(=O)N1CCC[C@H]1C(=O)N1CCC[C@H]1C(=O)N[C@@H](C)C(=O)N[C@@H](CCCCN)C(=O)N[C@@H](CC(C)C)C(=O)N[C@@H](CCC(N)=O)C(=O)N1CCC[C@H]1C(=O)N[C@@H](CCCNC(=N)N)C(=O)O)C(C)C — mean arterial pressure (chronic HFrEF patients; intravenous infusion, 0.1 µg/kg/min, end of 120 min infusion): 70.9 ± 13.1 mmHg
C=CC(=O)Nc1cc(Nc2nccc(-c3cn(C)c4ccccc34)n2)c(OC)cc1N(C)CCNC — mean measured concentration (long-term stability; human dried blood spot QC samples; 30 ng/mL, 30 d, -80 °C, MQC level): 29.2 ng/mL
CCCC[C@H](NC(=O)[C@H](CC(C)C)N(C)C(=O)CNC(=O)[C@@H](NC(=O)[C@H](Cc1ccccc1)NC(=O)[C@H](CCCCN)NC(=O)[C@@H](N)CC(=O)O)C(C)C)C(N)=O — mean arterial pressure change (anaesthetised Sinclair minipigs; IN, 100 µg/kg; relative to: baseline): -1.5 ± 3.99%
CC[C@@H](C)[C@@H](NC(=O)[C@@H](C)NC(=O)[C@@H](CCCCN)NC(=O)[C@@H](CC(C)C)NC(=O)[C@@H](CC(C)C)NC(=O)[C@H](NC(=O)[C@@H](CCCCN)NC(=O)[C@@H](CC(C)C)NC(=O)[C@@H](CCCCN)NC(=O)[C@@H](CCCCN)NC(=O)[C@@H](CCCCN)NC(=O)[C@@H](CCCCN)NC(=O)[C@@H](C)NC(=O)[C@@H](CCCCN)NC(=O)[C@@H](CO)NC(=O)[C@@H](Cc1ccccc1)NC(=O)[C@H](NC(=O)[C@@H](CCCCN)NC(=O)[C@@H](CC(C)C)NC(=O)[C@@H](Cc1ccccc1)NC(=O)[C@@H](CO)NC(=O)[C@@H](CCCCN)NC(=O)[C@@H](Cc1c[nH]c2ccccc12)NC(=O)[C@@H](CCCCN)NC(C)=O)[C@H](C)O)[C@H](C)O)C(=O)N[C@H](CO)C(=O)N[C@H](CCCCN)C(N)=O — mean residue molar ellipticity (circular dichroism; benign aqueous buffer; pH 7.0, 5 °C, at 222 nm; negative is more helical): 1750 deg cm2/dmol
C=CC(=O)Nc1cc(Nc2nccc(-c3c[nH]c4ccccc34)n2)c(OC)cc1N(C)CCN(C)C — mean measured concentration (long-term stability; human dried blood spot QC samples; 30 ng/mL, 30 d, -80 °C, MQC level): 28.9 ng/mL

Excerpt of the above:
CC(=O)N[C@H](CCCCN)C(=O)N[C@H](CC(C)C)C(=O)N[C@H](CCCCN)C(=O)N[C@H](CO)C(=O)N[C@H](CC(C)C)C(=O)N[C@H](CC(C)C)C(=O)N[C@H](CCCCN)C(=O)N[C@@H](C(=O)N[C@H](CC(C)C)C(=O)N[C@H](CO)C(=O)N[C@H](CCCCN)C(=O)N[C@H](C)C(=O)N[C@H](CCCCN)C(=O)N[C@H](CCCCN)C(=O)N[C@H](CCCCN)C(=O)N[C@H](CC(C)C)C(=O)N[C@H](CC(C)C)C(=O)N[C@H](CCCCN)C(=O)N[C@@H](C(=O)N[C@H](C)C(=O)N[C@H](CC(C)C)C(=O)N[C@H](CCCCN)C(=O)N[C@H](C)C(=O)N[C@H](CC(C)C)C(=O)N[C@H](CO)C(=O)N[C@H](CCCCN)C(N)=O)[C@H](C)O)[C@H](C)O — mean residue molar ellipticity (circular dichroism; benign aqueous buffer; pH 7.0, 5 °C, at 222 nm; negative is more helical): 4350 deg cm2/dmol
